Results collected from several papers.
A part holds a random share of what one study measured.
Chain of UniProt P08922 (whole entry, looked up): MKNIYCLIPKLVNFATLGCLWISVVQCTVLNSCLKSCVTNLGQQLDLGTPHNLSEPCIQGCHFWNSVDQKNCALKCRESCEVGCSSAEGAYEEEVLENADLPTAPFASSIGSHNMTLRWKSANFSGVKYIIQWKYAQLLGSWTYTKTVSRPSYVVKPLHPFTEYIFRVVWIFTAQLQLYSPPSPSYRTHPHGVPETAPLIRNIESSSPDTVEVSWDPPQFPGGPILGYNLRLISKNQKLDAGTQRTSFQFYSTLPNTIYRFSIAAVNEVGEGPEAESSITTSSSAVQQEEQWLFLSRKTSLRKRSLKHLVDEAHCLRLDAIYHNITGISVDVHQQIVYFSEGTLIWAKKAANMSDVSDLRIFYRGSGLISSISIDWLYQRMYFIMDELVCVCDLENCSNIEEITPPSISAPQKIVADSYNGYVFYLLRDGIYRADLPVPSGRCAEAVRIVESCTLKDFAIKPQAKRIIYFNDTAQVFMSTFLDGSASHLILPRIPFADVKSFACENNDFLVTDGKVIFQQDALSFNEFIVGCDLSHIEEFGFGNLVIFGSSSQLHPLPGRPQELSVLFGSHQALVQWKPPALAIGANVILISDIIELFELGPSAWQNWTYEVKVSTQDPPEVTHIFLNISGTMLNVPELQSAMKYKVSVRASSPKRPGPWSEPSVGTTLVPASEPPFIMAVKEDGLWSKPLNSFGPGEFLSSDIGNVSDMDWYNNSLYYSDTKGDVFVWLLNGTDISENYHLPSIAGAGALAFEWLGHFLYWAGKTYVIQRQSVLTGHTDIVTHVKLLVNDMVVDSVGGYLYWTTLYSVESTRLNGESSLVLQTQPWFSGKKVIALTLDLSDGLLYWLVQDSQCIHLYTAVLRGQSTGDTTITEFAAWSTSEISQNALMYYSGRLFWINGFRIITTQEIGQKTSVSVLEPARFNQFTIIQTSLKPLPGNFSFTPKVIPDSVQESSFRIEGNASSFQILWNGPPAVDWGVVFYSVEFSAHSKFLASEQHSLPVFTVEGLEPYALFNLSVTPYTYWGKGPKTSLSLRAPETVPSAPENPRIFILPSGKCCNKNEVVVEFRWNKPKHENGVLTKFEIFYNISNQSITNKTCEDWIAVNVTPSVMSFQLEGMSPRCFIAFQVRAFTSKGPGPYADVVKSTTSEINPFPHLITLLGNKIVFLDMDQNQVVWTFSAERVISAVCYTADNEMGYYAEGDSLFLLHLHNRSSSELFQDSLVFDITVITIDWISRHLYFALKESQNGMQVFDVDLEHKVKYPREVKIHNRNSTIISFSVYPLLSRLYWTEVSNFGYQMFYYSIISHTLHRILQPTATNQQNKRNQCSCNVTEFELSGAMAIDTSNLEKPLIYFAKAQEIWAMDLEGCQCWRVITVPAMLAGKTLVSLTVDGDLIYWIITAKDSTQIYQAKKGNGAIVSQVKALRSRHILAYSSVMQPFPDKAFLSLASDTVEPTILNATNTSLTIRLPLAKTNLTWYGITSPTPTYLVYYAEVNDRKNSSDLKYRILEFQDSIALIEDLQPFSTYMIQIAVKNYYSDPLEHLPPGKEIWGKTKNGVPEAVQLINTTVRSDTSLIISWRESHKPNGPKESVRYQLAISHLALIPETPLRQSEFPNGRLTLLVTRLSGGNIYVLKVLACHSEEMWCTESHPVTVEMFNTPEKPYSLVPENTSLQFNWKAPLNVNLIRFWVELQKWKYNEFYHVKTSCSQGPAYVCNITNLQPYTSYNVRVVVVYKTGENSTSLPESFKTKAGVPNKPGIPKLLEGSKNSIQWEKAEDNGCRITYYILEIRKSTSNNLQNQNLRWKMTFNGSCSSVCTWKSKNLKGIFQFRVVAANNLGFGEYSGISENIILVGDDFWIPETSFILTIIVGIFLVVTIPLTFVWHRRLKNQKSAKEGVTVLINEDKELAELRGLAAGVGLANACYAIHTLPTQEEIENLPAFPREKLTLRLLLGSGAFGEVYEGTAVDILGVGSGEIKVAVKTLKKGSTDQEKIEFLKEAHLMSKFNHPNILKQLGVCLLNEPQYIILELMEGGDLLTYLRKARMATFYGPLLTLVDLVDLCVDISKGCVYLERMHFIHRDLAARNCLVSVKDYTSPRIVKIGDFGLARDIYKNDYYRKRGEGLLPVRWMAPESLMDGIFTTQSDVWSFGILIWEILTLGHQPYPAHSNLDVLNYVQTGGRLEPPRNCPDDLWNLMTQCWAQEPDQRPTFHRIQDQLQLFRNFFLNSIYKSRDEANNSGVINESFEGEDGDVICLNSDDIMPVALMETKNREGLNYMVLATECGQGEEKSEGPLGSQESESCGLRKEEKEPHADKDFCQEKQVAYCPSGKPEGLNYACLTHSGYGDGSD
Chain of UniProt O43283 (whole entry, looked up): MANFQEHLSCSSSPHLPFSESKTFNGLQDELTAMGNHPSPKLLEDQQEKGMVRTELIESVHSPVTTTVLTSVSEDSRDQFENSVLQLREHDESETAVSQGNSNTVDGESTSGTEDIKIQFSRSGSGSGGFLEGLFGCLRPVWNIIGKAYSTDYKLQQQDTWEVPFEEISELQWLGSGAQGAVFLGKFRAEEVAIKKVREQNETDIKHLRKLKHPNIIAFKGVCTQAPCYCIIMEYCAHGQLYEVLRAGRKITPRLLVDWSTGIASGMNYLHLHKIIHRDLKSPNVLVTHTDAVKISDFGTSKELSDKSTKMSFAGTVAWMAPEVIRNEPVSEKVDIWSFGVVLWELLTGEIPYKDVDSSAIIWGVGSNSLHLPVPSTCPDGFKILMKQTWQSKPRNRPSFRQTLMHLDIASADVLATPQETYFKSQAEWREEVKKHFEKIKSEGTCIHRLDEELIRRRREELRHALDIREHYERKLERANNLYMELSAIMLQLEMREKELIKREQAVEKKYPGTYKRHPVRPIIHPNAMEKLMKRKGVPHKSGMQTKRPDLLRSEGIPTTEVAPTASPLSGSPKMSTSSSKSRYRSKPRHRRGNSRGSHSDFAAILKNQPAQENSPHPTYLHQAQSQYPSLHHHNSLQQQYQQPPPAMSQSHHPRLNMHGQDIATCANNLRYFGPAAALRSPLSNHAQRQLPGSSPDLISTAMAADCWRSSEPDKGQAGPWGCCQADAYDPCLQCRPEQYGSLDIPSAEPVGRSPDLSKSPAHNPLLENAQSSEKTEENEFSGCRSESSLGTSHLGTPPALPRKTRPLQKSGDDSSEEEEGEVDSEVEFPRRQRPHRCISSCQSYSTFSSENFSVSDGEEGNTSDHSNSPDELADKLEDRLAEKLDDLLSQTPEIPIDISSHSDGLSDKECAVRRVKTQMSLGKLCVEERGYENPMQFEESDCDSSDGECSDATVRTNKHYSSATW
Chain of UniProt Q9BYT3 (whole entry, looked up): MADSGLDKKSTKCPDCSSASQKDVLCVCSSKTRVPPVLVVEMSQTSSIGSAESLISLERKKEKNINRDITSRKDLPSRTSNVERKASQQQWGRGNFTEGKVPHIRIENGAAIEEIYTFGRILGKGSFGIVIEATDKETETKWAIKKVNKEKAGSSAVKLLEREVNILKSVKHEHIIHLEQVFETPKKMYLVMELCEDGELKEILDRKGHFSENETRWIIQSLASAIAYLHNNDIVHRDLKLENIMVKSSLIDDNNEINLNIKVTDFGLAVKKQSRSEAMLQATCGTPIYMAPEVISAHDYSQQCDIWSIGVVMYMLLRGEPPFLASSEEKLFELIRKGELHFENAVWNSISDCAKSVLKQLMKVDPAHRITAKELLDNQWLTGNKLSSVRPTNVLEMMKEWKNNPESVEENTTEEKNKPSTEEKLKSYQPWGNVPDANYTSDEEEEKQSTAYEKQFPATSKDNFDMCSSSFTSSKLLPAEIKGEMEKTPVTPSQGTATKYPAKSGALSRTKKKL

Set 1
Target: G protein-coupled receptor kinase 6 (GRK6, Homo sapiens, UniProt P43250)
Chain of UniProt P43250 (whole entry, looked up): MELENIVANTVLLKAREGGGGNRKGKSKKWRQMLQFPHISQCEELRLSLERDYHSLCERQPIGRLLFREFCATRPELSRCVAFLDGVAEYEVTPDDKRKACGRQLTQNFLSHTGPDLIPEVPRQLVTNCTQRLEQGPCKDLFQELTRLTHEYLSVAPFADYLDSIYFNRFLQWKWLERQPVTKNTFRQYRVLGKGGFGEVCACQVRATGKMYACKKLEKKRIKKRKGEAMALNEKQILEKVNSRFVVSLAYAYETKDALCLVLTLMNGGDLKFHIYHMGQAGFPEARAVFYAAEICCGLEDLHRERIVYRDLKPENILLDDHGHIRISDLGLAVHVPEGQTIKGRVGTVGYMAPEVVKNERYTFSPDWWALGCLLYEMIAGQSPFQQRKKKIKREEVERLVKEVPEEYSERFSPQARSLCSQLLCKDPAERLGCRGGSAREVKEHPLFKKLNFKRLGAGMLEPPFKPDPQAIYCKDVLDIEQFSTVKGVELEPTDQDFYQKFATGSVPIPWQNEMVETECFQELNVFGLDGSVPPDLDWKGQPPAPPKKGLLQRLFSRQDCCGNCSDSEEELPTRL
Observed: enzyme activity
Mode: inhibitor
Tested at: 0.5 µM
Reference: control
For `CCN(CC)CCCCN1c2ccccc2Oc2ccc(Cl)cc21`, the remaining activity was 88.4%.
`CNc1cc2c(Nc3cccc(Br)c3)ncnc2cn1` gave a remaining activity of 91.1%.
The remaining activity of `CCCCc1c(-c2ccc(O)cc2)[nH]c2nccnc12` is reported as 83.5%.
The remaining activity of `Clc1ccc(Nc2nnc(Cc3ccncc3)c3ccccc23)cc1` is reported as 99.9%.
With `O=C1NC(=O)/C(=C/c2ccc3c(c2)OC(F)(F)O3)S1` the remaining activity was 95.4%.
The remaining activity of `COc1cc2c(Nc3ccc(Br)cc3F)ncnc2cc1OCC1CCN(C)CC1` is reported as 104%.
For `Nc1nc(Nc2ccc(S(N)(=O)=O)cc2)nn1C(=S)Nc1c(F)cccc1F`, the remaining activity was 89.4%.
The remaining activity of `CC(C)N(CCC(=O)c1ccc2ccccc2c1)Cc1ccccc1` is reported as 87.1%.
With `FC(F)(F)c1ccc(/C=C/c2nc(COc3ccc(CCCCn4ccnn4)cc3)co2)cc1` the remaining activity was 104%.
With `COc1cc2c(N3CCN(C(=O)Nc4ccc(OC(C)C)cc4)CC3)ncnc2cc1OCCCN1CCCCC1` the remaining activity was 105%.
With `NC(=O)c1cccc(-c2cc(Nc3ccc(OC(F)(F)F)cc3)ncn2)c1` the remaining activity was 101%.
With `O=C(c1ccccc1)c1ccc(N2CCOCC2)cc1O` the remaining activity was 99.5%.
`NC(=O)c1ccc(-c2nc(-c3ccc4c(c3)OCCO4)c(-c3ccccn3)[nH]2)cc1` gave a remaining activity of 102%.
`O=Nc1c(-c2c(O)[nH]c3ccccc23)[nH]c2ccccc12` has a remaining activity of 89.4%.
With `CC(C)n1cnc2c(Nc3cccc(Cl)c3)nc(NCCO)nc21` the remaining activity was 88.8%.
For `O=C(O)/C=C/c1cc(Br)c(Br)c(Br)c1Br`, the remaining activity was 97.2%.
The remaining activity of `N#CC(c1ccnc(NCCc2cccnc2)n1)c1nc2ccccc2s1` (centres unmarked) is reported as 87.6%.
For `N#C/C(=C(/N)SC1C=CC=CC1)c1cccc(C(O)c2ccncc2)c1` (centres unmarked), the remaining activity was 84.3%.
The remaining activity of `CC(C)(C)c1nc2c3cc[nH]c(=O)c3c3cc(F)ccc3c2[nH]1` is reported as 48.2%.
The remaining activity of `O=C1c2ccccc2-c2nc3nnnn3nc21` is reported as 58%.
With `C[C@@H](N)[C@H]1CC[C@H](C(=O)Nc2ccncc2)CC1` the remaining activity was 91.4%.
For `c1cc(-c2cnn3cc(-c4ccc(OCCN5CCCCC5)cc4)cnc23)ccn1`, the remaining activity was 90.2%.

Set 2
Host: mouse
Medium: microsomes or S9
Tested at: 2 µM
Time: 0.5 h
With `CC(C)CC(=O)NCC12CCCC=C1N(C)C(=O)CC2` (centres unmarked) the remaining compound was 34%.
With `CCC(C)(C)C1CCc2c(sc(NC(=O)CC(C)CC(=O)O)c2C(N)=O)C1` (centres unmarked) the remaining compound was greater than 99%.
`CCC(CC)C(=O)N(C)c1ccc(-c2ccccc2)nn1` gave a remaining compound of 17.4%.
With `CC1Cc2cc(-c3ccc(C#N)c(O)n3)ccc2O1` (centres unmarked) the remaining compound was 22%.
With `Cc1coc(C)c1C(=O)CC1(O)C(=O)Nc2cc(Cl)cc(Cl)c21` (centres unmarked) the remaining compound was 56.6%.
`Cc1cc(C)nc(Nn2c(-c3ccccc3)nc3ccccc3c2=O)n1` gave a remaining compound of 3.28%.
For `Cc1cc(C)c(N2CC(=O)N(c3c(C)cc(C)cc3C)CC2=O)c(C)c1`, the remaining compound was 2.64%.
With `O=C(O)c1ccc2c(c1)NC(=O)c1ccccc1S2(=O)=O` the remaining compound was 96.8%.
The remaining compound of `Cc1c(C)n(-c2nccs2)c2ncnc(NCc3cccnc3)c12` is reported as 3.13%.
For `CCN(CC)C1c2cccc3cccc(c23)C1NS(=O)(=O)c1ccccc1` (centres unmarked), the remaining compound was 1.07%.
`CS(=O)(=O)C1=C(N)C(=O)N(c2ccccc2)C1c1ccccc1` (centres unmarked) gave a remaining compound of 0.278%.
The remaining compound of `O=C(NCc1cn2ccsc2n1)c1c[nH]c2nccc(Cl)c12` is reported as 41.6%.
For `CCC(NC(=O)NCCc1cnn(C)c1C)c1c(C)noc1C` (centres unmarked), the remaining compound was 64%.
For `COC(=O)c1cc2cc(-c3ccccc3)c3ccccc3c2o1`, the remaining compound was 73.5%.
`O=C(c1scc2c1OCCO2)N1CCCCCC1` gave a remaining compound of 17.9%.

Set 3
Target: Calcium/calmodulin-dependent protein kinase type II subunit alpha (CAMK2A, Homo sapiens, UniProt Q9UQM7)
Chain of UniProt Q9UQM7 (whole entry, looked up): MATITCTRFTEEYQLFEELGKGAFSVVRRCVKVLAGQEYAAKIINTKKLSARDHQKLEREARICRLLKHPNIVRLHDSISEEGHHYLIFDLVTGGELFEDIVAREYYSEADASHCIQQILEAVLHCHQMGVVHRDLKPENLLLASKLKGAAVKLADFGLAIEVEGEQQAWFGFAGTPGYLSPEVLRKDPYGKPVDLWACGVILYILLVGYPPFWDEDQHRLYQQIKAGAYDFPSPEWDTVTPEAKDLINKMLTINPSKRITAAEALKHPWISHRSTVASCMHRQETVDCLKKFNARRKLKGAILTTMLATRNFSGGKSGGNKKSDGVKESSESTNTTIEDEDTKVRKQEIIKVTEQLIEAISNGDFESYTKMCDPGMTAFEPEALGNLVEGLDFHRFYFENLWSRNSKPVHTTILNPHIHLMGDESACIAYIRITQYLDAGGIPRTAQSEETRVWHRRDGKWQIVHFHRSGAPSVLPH
Observed: enzyme activity
Mode: inhibitor
Tested at: 10 µM
`COc1ccc(/C=C\c2cc(OC)c(OC)c(OC)c2)cc1O` gave an inhibition of -24%.
For `Cc1nc2n(c(=O)c1CCN1CCC(c3noc4cc(F)ccc34)CC1)CCCC2O` (centres unmarked), the inhibition was 6%.
For `Cc1ccc(C(N)=O)cn1`, the inhibition was -12%.
The inhibition of `C[N+](C)(C)CCOP(=O)([O-])OC[C@H](O)CO` is reported as 1%.
`Cc1ccc(Cl)c(OCC(O)CNC(C)(C)C)c1` (centres unmarked) gave an inhibition of -10%.
The inhibition of `OC[C@H]1O[C@H](OC[C@H]2O[C@H](OC[C@H]3O[C@H](O[C@]4(CO)O[C@H](CO)[C@@H](O)[C@@H]4O)[C@H](O)[C@@H](O)[C@@H]3O)[C@H](O)[C@@H](O)[C@H]2O)[C@H](O)[C@@H](O)[C@H]1O` is reported as -32%.
`CC(=O)SCC(Cc1ccccc1)C(=O)NCC(=O)OCc1ccccc1` (centres unmarked) has an inhibition of -10%.
`C[C@H]1[C@H]2CC[C@H]3[C@@H]4CC=C5C[C@@H](N(C)C)CC[C@]5(C)[C@H]4CC[C@]23CN1C` gave an inhibition of -96%.
With `CO[C@H]1O[C@@H]2O[C@@]3(C)CC[C@H]4[C@H](C)CC[C@@H]([C@H]1C)[C@@]24OO3` the inhibition was 3%.
`C[C@@H]1O[C@@H](Oc2c(-c3cc(O)c(O)c(O)c3)oc3cc(O)cc(O)c3c2=O)[C@H](O)[C@H](O)[C@H]1O` gave an inhibition of 5%.
`OC1COC(O)CO1` (centres unmarked) has an inhibition of 5%.
For `C[n+]1cccc(C(N)=O)c1`, the inhibition was -23%.
With `O=C(O)c1cccc(O)c1O` the inhibition was -15%.
`CC(C)=CCC[C@](C)(O[C@@H]1O[C@H](CO[C@@H]2O[C@@H](CO)[C@H](O)[C@H]2O)[C@@H](O)[C@H](O)[C@H]1O)[C@H]1CC[C@]2(C)[C@@H]1[C@H](O)C[C@@H]1[C@@]3(C)CC[C@H](O)C(C)(C)[C@@H]3[C@@H](O)C[C@]12C` has an inhibition of -8%.
For `OC[C@H]1O[C@@H](Oc2cc3c(O)cc(O)cc3[o+]c2-c2ccc(O)c(O)c2)[C@H](O)[C@@H](O)[C@@H]1O`, the inhibition was 13%.

Set 4
SMILES: Cc1c(NC(=O)c2cc(C(N)=O)nc3cc(F)ccc23)c(C(F)(F)F)nn1Cc1ccc(C(C)(C)C)cc1
Observed: cell-free assay
Technique: competition with immobilised ligand
Tested at: 1 µM
Ephrin type-B receptor 4 (EPHB4, Homo sapiens, UniProt P54760) — remaining binding: 100%.
Serine/threonine-protein kinase MARK2 (MARK2, Homo sapiens, UniProt Q7KZI7) — remaining binding: 100%.
It gave 100% for remaining binding (Tyrosine-protein kinase BTK (BTK, Homo sapiens, UniProt Q06187)).
It gave 91% for remaining binding (Serine/threonine-protein kinase SIK3 (SIK3, Homo sapiens, UniProt Q9Y2K2)).
The remaining binding was 84% (Tyrosine-protein kinase ABL1, non-phosphorylated (ABL1, Homo sapiens, UniProt P00519, Q252H)).
Proto-oncogene tyrosine-protein kinase receptor Ret (RET, Homo sapiens, UniProt P07949, V804L) — remaining binding: 83%.
The remaining binding was 100% (Ephrin type-A receptor 6 (EPHA6, Homo sapiens, UniProt Q9UF33)).
It gave 100% for remaining binding (Serine/threonine-protein kinase tousled-like 1 (TLK1, Homo sapiens, UniProt Q9UKI8)).
For Tyrosine-protein kinase ITK/TSK (ITK, Homo sapiens, UniProt Q08881): remaining binding read 95%.
Tyrosine-protein kinase Fyn (FYN, Homo sapiens, UniProt P06241) — remaining binding: 100%.
Tyrosine-protein kinase Lck (LCK, Homo sapiens, UniProt P06239) — remaining binding: 100%.
The remaining binding was 100% (Proto-oncogene tyrosine-protein kinase ROS (ROS1, Homo sapiens, UniProt P08922)).
Ribosomal protein S6 kinase alpha-1, N-terminal kinase domain (RPS6KA1, Homo sapiens, UniProt Q15418) — remaining binding: 100%.
It gave 100% for remaining binding (Serine/threonine-protein kinase Nek9 (NEK9, Homo sapiens, UniProt Q8TD19)).
Phosphatidylinositol 4,5-bisphosphate 3-kinase catalytic subunit gamma isoform (PIK3CG, Homo sapiens, UniProt P48736) — remaining binding: 100%.
NUAK family SNF1-like kinase 2 (NUAK2, Homo sapiens, UniProt Q9H093) — remaining binding: 100%.
The remaining binding was 100% (Myosin-IIIb (MYO3B, Homo sapiens, UniProt Q8WXR4)).
The remaining binding was 100% (Peripheral plasma membrane protein CASK (CASK, Homo sapiens, UniProt O14936)).
It gave 100% for remaining binding (Mitogen-activated protein kinase 14 (MAPK14, Homo sapiens, UniProt Q16539)).
For Dual specificity mitogen-activated protein kinase kinase 5 (MAP2K5, Homo sapiens, UniProt Q13163): remaining binding read 78%.
It gave 96% for remaining binding (Serine/threonine-protein kinase 33 (STK33, Homo sapiens, UniProt Q9BYT3)).
The remaining binding was 97% (Serine/threonine-protein kinase ULK3 (ULK3, Homo sapiens, UniProt Q6PHR2)).
For Mitogen-activated protein kinase kinase kinase 13 (MAP3K13, Homo sapiens, UniProt O43283): remaining binding read 100%.
The remaining binding was 70% (Atypical kinase COQ8B, mitochondrial (COQ8B, Homo sapiens, UniProt Q96D53)).
The remaining binding was 89% (High affinity nerve growth factor receptor (NTRK1, Homo sapiens, UniProt P04629)).
